Measured values gathered from unrelated publications.
Each numbered part is a random draw from the data of one study; scales do not carry over between parts. Values joined by “and” are separate records of one study, mostly repeats; a detail may differ.
UniProt P35626, sequence (whole entry, looked up): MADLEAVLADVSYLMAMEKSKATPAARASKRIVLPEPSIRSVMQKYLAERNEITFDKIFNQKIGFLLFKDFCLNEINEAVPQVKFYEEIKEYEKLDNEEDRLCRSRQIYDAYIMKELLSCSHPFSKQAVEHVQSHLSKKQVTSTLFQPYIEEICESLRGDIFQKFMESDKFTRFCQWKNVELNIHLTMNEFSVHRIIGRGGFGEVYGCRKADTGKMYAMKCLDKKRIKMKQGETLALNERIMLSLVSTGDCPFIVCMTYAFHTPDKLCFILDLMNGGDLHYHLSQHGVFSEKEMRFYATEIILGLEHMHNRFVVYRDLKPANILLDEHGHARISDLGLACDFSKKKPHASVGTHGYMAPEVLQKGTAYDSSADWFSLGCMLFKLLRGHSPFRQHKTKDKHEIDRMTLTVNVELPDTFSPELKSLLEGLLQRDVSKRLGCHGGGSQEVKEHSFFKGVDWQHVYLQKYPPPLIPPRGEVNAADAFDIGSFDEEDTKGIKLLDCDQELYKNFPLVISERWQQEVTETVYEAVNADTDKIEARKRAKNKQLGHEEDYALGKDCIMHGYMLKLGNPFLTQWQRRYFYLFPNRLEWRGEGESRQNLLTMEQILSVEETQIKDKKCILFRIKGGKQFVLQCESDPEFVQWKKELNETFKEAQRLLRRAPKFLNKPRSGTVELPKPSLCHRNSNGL
UniProt Q96RR4, sequence (whole entry, looked up): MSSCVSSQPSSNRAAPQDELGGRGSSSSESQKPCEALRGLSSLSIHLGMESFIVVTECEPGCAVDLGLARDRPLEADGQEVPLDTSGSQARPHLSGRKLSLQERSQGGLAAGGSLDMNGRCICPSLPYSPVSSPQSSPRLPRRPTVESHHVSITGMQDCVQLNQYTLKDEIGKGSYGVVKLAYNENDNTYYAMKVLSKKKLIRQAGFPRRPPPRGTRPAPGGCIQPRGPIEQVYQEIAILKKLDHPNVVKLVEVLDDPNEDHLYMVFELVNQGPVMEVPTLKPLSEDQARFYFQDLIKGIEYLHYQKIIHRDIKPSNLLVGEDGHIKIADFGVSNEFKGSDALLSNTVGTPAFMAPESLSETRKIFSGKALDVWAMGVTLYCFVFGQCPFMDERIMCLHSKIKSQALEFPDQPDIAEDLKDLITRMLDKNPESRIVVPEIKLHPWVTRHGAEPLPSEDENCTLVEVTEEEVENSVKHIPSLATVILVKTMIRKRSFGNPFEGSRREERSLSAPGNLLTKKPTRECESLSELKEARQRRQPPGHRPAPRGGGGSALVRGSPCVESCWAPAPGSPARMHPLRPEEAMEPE
UniProt P31751, sequence (whole entry, looked up): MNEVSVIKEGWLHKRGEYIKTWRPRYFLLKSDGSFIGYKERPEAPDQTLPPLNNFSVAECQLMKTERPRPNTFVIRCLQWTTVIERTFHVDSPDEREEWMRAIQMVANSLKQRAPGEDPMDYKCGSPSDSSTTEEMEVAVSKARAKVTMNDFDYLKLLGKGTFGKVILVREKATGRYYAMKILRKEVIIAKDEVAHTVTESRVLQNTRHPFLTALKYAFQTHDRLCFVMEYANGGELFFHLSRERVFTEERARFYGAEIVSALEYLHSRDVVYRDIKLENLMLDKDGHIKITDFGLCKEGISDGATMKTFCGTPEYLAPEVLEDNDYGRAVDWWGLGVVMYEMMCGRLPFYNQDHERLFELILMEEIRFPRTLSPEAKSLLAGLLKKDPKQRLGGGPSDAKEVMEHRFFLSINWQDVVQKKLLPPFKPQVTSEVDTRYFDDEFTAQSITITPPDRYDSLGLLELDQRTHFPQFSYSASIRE
UniProt P05771, sequence (whole entry, looked up): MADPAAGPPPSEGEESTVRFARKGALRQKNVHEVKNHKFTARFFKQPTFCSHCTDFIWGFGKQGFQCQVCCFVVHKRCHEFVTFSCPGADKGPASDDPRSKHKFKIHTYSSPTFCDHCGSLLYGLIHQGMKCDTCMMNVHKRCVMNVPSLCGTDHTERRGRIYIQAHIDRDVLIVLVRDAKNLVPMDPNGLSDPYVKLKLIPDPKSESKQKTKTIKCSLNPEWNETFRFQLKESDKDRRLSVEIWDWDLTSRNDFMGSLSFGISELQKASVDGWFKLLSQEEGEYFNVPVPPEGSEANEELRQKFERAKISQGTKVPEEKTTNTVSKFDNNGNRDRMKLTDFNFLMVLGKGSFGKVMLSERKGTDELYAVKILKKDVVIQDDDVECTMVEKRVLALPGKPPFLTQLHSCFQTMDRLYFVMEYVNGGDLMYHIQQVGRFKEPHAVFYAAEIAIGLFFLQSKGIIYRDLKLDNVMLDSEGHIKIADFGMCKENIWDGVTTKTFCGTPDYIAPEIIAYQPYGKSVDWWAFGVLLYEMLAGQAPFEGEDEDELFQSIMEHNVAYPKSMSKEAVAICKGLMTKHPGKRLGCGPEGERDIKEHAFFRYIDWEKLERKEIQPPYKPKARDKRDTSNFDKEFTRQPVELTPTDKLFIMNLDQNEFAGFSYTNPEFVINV
UniProt O96017, sequence (whole entry, looked up): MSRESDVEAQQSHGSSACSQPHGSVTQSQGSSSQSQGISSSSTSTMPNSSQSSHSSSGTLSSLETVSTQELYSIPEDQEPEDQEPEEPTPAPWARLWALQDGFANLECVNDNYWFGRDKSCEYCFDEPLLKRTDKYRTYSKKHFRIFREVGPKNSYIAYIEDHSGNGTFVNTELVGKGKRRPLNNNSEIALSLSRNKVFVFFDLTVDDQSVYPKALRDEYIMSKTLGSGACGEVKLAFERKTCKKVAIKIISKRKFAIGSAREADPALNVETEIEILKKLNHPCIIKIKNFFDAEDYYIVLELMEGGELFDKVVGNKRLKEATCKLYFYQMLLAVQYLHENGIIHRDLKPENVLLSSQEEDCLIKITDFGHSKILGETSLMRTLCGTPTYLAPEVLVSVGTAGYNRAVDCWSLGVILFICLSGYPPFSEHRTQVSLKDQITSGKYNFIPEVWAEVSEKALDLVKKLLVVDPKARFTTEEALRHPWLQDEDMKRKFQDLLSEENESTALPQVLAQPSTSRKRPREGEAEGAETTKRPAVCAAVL
UniProt Q00535, sequence (whole entry, looked up): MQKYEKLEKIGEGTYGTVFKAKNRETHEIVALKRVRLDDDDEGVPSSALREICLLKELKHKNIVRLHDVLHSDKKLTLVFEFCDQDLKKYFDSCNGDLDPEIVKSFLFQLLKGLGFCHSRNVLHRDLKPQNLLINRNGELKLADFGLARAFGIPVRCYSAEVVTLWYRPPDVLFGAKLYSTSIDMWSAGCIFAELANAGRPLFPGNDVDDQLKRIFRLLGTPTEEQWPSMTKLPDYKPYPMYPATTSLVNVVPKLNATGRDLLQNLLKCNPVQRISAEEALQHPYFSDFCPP
UniProt P07948, sequence (whole entry, looked up): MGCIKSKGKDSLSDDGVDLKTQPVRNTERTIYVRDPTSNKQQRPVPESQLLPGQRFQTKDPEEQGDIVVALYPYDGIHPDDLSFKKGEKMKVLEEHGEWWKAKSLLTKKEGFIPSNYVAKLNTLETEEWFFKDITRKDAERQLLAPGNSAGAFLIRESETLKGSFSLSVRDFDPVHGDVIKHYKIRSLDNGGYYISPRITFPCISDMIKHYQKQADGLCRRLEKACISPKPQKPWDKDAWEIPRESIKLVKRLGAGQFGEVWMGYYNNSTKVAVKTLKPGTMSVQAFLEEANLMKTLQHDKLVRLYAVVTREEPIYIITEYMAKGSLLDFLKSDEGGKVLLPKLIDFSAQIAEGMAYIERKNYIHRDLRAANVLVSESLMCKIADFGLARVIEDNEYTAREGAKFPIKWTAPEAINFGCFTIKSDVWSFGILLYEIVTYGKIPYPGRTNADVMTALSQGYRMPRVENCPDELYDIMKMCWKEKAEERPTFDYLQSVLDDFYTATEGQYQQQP
UniProt Q15375, sequence (whole entry, looked up): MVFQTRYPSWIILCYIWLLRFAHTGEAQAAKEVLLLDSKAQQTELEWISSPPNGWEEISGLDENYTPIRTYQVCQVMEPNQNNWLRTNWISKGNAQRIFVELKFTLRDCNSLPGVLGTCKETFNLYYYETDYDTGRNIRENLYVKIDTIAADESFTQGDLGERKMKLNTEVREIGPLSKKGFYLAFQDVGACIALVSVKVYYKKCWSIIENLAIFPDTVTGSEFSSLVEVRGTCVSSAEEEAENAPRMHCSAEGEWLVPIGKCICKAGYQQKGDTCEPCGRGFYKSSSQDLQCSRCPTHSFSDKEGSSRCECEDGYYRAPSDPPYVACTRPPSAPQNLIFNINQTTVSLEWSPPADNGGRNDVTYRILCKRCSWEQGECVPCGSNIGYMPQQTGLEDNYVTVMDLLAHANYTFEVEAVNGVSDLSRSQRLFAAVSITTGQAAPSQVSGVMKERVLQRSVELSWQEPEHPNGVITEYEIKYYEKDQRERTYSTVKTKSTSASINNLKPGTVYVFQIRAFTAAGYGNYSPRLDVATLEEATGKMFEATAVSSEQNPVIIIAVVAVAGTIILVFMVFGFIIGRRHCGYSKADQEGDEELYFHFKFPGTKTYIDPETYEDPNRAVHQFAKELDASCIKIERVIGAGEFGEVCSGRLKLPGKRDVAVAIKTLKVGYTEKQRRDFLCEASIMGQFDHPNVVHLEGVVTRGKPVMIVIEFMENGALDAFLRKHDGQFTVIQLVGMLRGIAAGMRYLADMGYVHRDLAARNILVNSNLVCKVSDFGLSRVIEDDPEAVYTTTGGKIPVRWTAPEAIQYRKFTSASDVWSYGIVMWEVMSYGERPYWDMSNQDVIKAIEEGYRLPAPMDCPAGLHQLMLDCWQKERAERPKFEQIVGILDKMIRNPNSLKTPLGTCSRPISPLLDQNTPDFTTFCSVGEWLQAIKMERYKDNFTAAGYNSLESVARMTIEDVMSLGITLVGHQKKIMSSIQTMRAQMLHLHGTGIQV

Study 1 — cell line: mouse MPNST tumor cells; technique: high-content nuclear imaging; item: cell number; concentration: 10 µM; time: 12 h; notes: mean of 2 replicates; reference: plate mean; direction: higher = more cells
| Structure (SMILES) | nuclei count |
| --- | --- |
| O=c1cc(N2CCN(c3cccc(C(F)(F)F)c3)CC2)[nH]c(=O)n1C1CCCCC1 | 0.441 z-score |
| Brc1c(Br)c(Br)c2n[nH]nc2c1Br | 0.154 z-score |
| CCCCC(O)c1ccccc1 (centres unmarked) | -0.333 z-score |
| NC(=O)c1ccc(-c2nc(-c3ccc4c(c3)OCCO4)c(-c3ccccn3)[nH]2)cc1 | -2.31 z-score |
| CCN(CC)C(=S)S | -0.463 z-score |
| Cc1ccc(C)c(OCCCC(C)(C)C(=O)O)c1 | -0.216 z-score |
| CCOC(=O)c1cc2ccc(O)cc2oc1=O | 1.97 z-score |
| CC(=O)Oc1ccccc1C(=O)O | 1.38 z-score and 0.665 z-score |
| COc1ccc(CCN(C)CCCOc2ccc(S(=O)(=O)c3c(C(C)C)c4ccccc4n3C)cc2)cc1OC | -5.85 z-score |
| CC1(C)OC(=O)NC1=O | -0.0705 z-score |
| CCC[C@@H]1C[C@@H](C(=O)N[C@@H]([C@H]2O[C@H](SC)[C@H](O)[C@@H](O)[C@H]2O)[C@H](C)Cl)N(C)C1 | 1.42 z-score |
| CCCCNc1ncc(C(=O)NCc2ccc(-n3ccnc3)cc2)c(NC2CCC(O)CC2)n1 (centres unmarked) | 1.28 z-score |
| COC(=O)Nc1nc2cc(Sc3ccccc3)ccc2[nH]1 | -5.43 z-score |

Study 2 — SMILES: O=C1NC(=O)/C(=C/c2ccc3nccnc3c2)S1; observed: enzyme activity; mode: inhibitor; concentration: 0.5 µM; reference: control
| target | remaining activity [%] |
| --- | --- |
| Death-associated protein kinase 1 (DAPK1, Homo sapiens, UniProt P53355) | 105 |
| Calcium/calmodulin-dependent protein kinase type II subunit delta (CAMK2D, Homo sapiens, UniProt Q13557) | 93.7 |
| TGF-beta receptor type-1 (TGFBR1, Homo sapiens, UniProt P36897) | 98.5 |
| Mitogen-activated protein kinase 9 (MAPK9, Homo sapiens, UniProt P45984) | 96 |
| Tyrosine-protein kinase Lyn, isoform B (LYN, Homo sapiens, UniProt P07948) | 99.2 |
| Mitogen-activated protein kinase kinase kinase 3 (MAP3K3, Homo sapiens, UniProt Q99759) | 100 |
| Serine/threonine-protein kinase Chk2 (CHEK2, Homo sapiens, UniProt O96017) | 90.3 |
| cGMP-dependent protein kinase 1, isoform beta (PRKG1, Homo sapiens, UniProt Q13976) | 113 |
| Protein kinase C beta type, isoform beta-I (PRKCB, Homo sapiens, UniProt P05771) | 96.9 |
| Inhibitor of nuclear factor kappa-B kinase subunit beta (IKBKB, Homo sapiens, UniProt O14920) | 96.1 |
| G protein-coupled receptor kinase 3 (GRK3, Homo sapiens, UniProt P35626) | 111 |
| Inhibitor of nuclear factor kappa-B kinase subunit epsilon (IKBKE, Homo sapiens, UniProt Q14164) | 99.5 |
| Serine/threonine-protein kinase STK11 (STK11, Homo sapiens, UniProt Q15831) | 96.6 |
| TGF-beta receptor type-2 (TGFBR2, Homo sapiens, UniProt P37173) | 108 |
| Cyclin-dependent kinase 5, with p25 (CDK5, Homo sapiens, UniProt Q00535) | 83.2 |
| Protein kinase C alpha type (PRKCA, Homo sapiens, UniProt P17252) | 102 |
| Calcium/calmodulin-dependent protein kinase kinase 2 (CAMKK2, Homo sapiens, UniProt Q96RR4) | 72.9 |
| cAMP-dependent protein kinase catalytic subunit alpha (PRKACA, Homo sapiens, UniProt P17612) | 97.2 |
| Serine/threonine-protein kinase 10 (STK10, Homo sapiens, UniProt O94804) | 90.5 |
| Death-associated protein kinase 2 (DAPK2, Homo sapiens, UniProt Q9UIK4) | 139 |
| Serine/threonine-protein kinase Nek2 (NEK2, Homo sapiens, UniProt P51955) | 92.2 |
| Serine/threonine-protein kinase OSR1 (OXSR1, Homo sapiens, UniProt O95747) | 98.4 |
| Cyclin-dependent kinase 4, with cyclin D1 (CDK4, Homo sapiens, UniProt P11802) | 94.4 |
| STE20/SPS1-related proline-alanine-rich protein kinase (STK39, Homo sapiens, UniProt Q9UEW8) | 104 |

Study 3 — technique: competition with immobilised ligand; concentration: 1 µM
SMILES: COc1ccc2cc(OCC3(C(=O)O)CN(C(=O)c4ccc(F)cc4)C3)ccc2c1
| target | test | remaining binding |
| --- | --- | --- |
| Serine/threonine-protein kinase/endoribonuclease IRE1 (ERN1, Homo sapiens, UniProt O75460) | cell-free assay | 80% |
| Phosphatidylinositol 4,5-bisphosphate 3-kinase catalytic subunit alpha isoform (PIK3CA, Homo sapiens, UniProt P42336, E542K) | cell-free assay | 50% |
| Tyrosine-protein kinase TXK (TXK, Homo sapiens, UniProt P42681) | binding | 100% |
| Bone morphogenetic protein receptor type-1B (BMPR1B, Homo sapiens, UniProt O00238) | cell-free assay | 95% |
| Aurora kinase C (AURKC, Homo sapiens, UniProt Q9UQB9) | cell-free assay | 98% |
| Ribosomal protein S6 kinase alpha-4, N-terminal kinase domain (RPS6KA4, Homo sapiens, UniProt O75676) | cell-free assay | 100% |
| Fibroblast growth factor receptor 1 (FGFR1, Homo sapiens, UniProt P11362) | cell-free assay | 100% |
| Activin receptor type-1B (ACVR1B, Homo sapiens, UniProt P36896) | cell-free assay | 78% |
| Dual specificity mitogen-activated protein kinase kinase 4 (MAP2K4, Homo sapiens, UniProt P45985) | cell-free assay | 90% |
| RAC-beta serine/threonine-protein kinase (AKT2, Homo sapiens, UniProt P31751) | cell-free assay | 100% |
| Ephrin type-A receptor 7 (EPHA7, Homo sapiens, UniProt Q15375) | cell-free assay | 100% |
| Mitogen-activated protein kinase kinase kinase 15 (MAP3K15, Homo sapiens, UniProt Q6ZN16) | cell-free assay | 94% |
| Non-receptor tyrosine-protein kinase TYK2, JH1 (TYK2, Homo sapiens, UniProt P29597) | cell-free assay | 89% |
| BMP-2-inducible protein kinase (BMP2K, Homo sapiens, UniProt Q9NSY1) | cell-free assay | 100% |
| Hepatocyte growth factor receptor (MET, Homo sapiens, UniProt P08581, M1250T) | cell-free assay | 100% |
| Serine/threonine-protein kinase SIK2 (SIK2, Homo sapiens, UniProt Q9H0K1) | cell-free assay | 100% |
| Glycogen synthase kinase-3 beta (GSK3B, Homo sapiens, UniProt P49841) | cell-free assay | 100% |
| Casein kinase II subunit alpha' (CSNK2A2, Homo sapiens, UniProt P19784) | cell-free assay | 100% |

Single results of other studies
| Structure (SMILES) | test system | setting | measurement | value |
| --- | --- | --- | --- | --- |
| CC(C)n1cnc(-c2ccc(F)cc2)c1-c1ncc(C(=O)Nc2ccc(N3CCN(C)CC3)cc2)[nH]1 | human, idiopathic pulmonary fibrosis | 30 mg once daily, trial, treatment-emergent | patients with increased reticulocyte | 0% |

For quick reference, copied from above (study 2):
| target | remaining activity [%] |
| --- | --- |
| G protein-coupled receptor kinase 3 (GRK3, Homo sapiens, UniProt P35626) | 111 |
| Inhibitor of nuclear factor kappa-B kinase subunit epsilon (IKBKE, Homo sapiens, UniProt Q14164) | 99.5 |
| Serine/threonine-protein kinase STK11 (STK11, Homo sapiens, UniProt Q15831) | 96.6 |
| TGF-beta receptor type-2 (TGFBR2, Homo sapiens, UniProt P37173) | 108 |
| Cyclin-dependent kinase 5, with p25 (CDK5, Homo sapiens, UniProt Q00535) | 83.2 |
| Protein kinase C alpha type (PRKCA, Homo sapiens, UniProt P17252) | 102 |
| Calcium/calmodulin-dependent protein kinase kinase 2 (CAMKK2, Homo sapiens, UniProt Q96RR4) | 72.9 |
